# Assay results collected from several papers.
# Values joined by “and” are separate records of one study, mostly repeats; a detail may differ. ± gives the spread as reported.
# PTGS2: Prostaglandin G/H synthase 2 (PTGS2, Homo sapiens, UniProt P35354)
# UniProt P35354, sequence (whole entry, looked up): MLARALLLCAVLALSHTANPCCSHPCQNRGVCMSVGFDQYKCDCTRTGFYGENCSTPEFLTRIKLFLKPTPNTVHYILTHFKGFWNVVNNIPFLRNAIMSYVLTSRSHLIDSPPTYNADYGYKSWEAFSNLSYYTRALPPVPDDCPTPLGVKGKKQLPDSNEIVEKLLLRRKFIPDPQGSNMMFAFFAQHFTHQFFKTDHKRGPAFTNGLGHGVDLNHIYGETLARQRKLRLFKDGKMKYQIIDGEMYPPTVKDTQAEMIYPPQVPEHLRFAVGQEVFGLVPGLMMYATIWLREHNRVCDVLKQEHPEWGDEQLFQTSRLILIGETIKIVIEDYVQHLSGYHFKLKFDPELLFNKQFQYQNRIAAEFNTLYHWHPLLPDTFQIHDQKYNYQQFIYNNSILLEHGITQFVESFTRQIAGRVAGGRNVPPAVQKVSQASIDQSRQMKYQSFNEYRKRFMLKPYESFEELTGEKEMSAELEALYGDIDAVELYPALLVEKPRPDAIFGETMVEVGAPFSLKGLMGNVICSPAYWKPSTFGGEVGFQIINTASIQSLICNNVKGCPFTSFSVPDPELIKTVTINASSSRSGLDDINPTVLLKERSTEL
# USP5: Ubiquitin carboxyl-terminal hydrolase 5 (USP5, Homo sapiens, UniProt P45974)
# UniProt P45974, sequence (whole entry, looked up): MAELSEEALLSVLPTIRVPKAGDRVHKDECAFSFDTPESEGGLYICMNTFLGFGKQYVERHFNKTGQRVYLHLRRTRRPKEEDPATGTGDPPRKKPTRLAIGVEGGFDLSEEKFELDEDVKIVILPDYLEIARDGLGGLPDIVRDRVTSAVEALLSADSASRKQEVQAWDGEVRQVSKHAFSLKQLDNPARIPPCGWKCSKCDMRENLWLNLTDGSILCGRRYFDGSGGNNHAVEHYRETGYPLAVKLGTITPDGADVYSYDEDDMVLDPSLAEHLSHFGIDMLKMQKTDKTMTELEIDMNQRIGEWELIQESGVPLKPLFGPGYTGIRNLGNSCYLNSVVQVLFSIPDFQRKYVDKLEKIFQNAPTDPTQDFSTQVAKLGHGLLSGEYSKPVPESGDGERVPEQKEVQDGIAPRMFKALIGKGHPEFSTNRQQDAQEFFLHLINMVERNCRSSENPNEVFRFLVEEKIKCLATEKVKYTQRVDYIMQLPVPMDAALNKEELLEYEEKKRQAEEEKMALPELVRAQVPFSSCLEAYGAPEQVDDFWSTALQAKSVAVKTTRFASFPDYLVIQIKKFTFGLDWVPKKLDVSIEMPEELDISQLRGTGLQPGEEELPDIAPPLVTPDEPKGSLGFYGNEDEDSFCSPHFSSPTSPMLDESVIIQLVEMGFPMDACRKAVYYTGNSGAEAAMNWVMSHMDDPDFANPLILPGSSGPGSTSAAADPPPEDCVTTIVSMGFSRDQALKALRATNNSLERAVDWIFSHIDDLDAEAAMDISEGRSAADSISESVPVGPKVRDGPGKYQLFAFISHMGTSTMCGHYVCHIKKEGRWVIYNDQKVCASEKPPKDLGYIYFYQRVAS
# Coelenterazine h 2-monooxygenase: Coelenterazine h 2-monooxygenase (Renilla reniformis, UniProt P27652)
# UniProt P27652, sequence (whole entry, looked up): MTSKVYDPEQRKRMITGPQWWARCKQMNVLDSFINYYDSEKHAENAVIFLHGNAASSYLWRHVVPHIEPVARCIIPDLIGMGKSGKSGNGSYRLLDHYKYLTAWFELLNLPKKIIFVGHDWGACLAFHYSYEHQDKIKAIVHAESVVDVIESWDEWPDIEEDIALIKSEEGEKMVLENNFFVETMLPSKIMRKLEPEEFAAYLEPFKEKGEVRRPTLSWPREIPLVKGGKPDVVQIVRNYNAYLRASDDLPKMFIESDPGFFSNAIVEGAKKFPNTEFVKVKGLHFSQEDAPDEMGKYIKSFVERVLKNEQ
# Protein-S-isoprenylcysteine O-methyltransferase: Protein-S-isoprenylcysteine O-methyltransferase (Homo sapiens, UniProt O60725)
# UniProt O60725, sequence (whole entry, looked up): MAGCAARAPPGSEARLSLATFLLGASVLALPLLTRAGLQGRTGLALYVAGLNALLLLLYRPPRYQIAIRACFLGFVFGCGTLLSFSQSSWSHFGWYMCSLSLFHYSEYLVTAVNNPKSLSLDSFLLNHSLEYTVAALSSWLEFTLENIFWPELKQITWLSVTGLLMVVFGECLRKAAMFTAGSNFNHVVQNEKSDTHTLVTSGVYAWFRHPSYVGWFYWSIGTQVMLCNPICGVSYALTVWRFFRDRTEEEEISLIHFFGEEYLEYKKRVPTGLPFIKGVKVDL
# UniProt Q02127, sequence (whole entry, looked up): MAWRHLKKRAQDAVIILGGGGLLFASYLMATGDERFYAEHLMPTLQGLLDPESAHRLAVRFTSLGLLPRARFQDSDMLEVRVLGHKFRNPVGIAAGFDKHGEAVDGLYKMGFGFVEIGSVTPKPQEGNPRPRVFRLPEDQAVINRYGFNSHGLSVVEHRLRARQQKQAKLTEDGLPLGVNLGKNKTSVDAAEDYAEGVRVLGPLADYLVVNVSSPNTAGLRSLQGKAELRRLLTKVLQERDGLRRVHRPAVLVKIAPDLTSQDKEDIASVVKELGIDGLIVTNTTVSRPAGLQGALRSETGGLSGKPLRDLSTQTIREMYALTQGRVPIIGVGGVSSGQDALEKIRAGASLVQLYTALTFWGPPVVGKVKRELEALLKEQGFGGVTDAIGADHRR
# UniProt P11838, sequence (whole entry, looked up): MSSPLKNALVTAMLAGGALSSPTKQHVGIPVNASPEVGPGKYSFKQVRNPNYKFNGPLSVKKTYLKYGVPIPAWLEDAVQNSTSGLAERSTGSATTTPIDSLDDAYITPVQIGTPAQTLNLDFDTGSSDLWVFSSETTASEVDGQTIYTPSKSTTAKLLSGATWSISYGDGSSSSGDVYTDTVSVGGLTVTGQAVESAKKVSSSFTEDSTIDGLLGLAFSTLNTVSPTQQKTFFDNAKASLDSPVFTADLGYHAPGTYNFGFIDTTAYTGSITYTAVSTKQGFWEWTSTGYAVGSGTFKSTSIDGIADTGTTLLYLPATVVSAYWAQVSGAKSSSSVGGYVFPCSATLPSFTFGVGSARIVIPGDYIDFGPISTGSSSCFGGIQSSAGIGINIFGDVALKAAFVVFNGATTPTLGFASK
# UniProt Q96LA8, sequence (whole entry, looked up): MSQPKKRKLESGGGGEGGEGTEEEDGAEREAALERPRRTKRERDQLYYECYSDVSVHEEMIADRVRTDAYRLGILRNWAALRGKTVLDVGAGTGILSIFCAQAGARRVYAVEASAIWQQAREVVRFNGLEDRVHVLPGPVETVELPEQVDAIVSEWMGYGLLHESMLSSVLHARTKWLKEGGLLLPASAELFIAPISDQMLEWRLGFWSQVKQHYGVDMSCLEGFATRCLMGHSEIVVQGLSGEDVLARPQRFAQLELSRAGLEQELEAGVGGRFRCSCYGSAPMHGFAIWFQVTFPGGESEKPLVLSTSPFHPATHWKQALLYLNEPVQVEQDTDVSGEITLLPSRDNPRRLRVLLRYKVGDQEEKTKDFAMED
# UniProt P32239, sequence (whole entry, looked up): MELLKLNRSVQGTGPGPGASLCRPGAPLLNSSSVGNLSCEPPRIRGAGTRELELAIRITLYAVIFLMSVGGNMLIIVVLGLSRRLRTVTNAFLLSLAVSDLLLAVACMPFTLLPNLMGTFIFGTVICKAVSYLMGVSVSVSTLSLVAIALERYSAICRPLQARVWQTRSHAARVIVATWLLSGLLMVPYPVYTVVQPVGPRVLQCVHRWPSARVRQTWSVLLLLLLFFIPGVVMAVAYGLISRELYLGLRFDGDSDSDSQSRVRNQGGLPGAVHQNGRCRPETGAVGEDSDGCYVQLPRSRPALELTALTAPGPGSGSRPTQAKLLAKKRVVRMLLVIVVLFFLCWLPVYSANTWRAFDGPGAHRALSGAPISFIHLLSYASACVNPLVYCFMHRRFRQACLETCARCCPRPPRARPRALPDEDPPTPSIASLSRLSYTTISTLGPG
# UniProt P35414, sequence (whole entry, looked up): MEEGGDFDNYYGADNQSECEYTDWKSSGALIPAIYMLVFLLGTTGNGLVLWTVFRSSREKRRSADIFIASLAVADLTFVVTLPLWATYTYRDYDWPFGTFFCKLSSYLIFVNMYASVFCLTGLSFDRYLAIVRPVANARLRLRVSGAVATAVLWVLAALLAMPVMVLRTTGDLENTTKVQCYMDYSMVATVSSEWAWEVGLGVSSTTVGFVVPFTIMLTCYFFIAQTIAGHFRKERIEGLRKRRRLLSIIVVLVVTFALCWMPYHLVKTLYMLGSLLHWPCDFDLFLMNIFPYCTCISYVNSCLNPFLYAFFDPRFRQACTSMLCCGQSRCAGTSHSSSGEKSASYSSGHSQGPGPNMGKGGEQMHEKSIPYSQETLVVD
SMILES,tested on,assay,system,setting,quantity,value
"CC(=O)C12NC(C)(C)CC1(C)C(=O)C1=C2c2c(c3c4n2C(C)(C)CC2=C4C4(CC(C)(C)NC(C)(C4)C2=O)CC3(C)C)C(=O)C(C)(C)N1 (single isomer, unassigned; (-))","TRPA1 (Homo sapiens, UniProt O75762)","ion current, inhibitor, patch clamp",HEK-293T,50 µM,inhibition,3.56%
CS(=O)(=O)Nc1cccc(-c2csc3cnc(Nc4ccc(N5CCN(CCCCCOc6cccc7c6C(=O)N(C6CCC(=O)NC6=O)C7=O)CC5)cc4)nc23)c1 (stereo not shown),"MAST3 (Homo sapiens, UniProt O60307)","probe labelling, inhibitor, KiNativ chemoproteomics",MOLT-4,1 µM,inhibition,12.7%
COc1cccc(-c2cc(F)c(NC(=O)Nc3sc(C)nc3C(=O)O)c(F)c2)c1,"DHODH (Homo sapiens, UniProt Q02127)","enzyme activity, DCIP colorimetric",,1.00 µM,inhibition,76.7% and 77.1% and 76.3%
CN(C)C(=O)CNC(=O)c1ccc([C@H]2[C@@H](F)[C@@H](F)C[C@@H](F)[C@H]2F)cc1,,liver microsome stability,mouse liver microsomes,1 µM,hepatic clearance,14 mL/min/kg
CS(=O)(=O)c1ccc(-n2cc(C=NN=c3[nH]c(-c4ccc(Br)cc4)cs3)c(-c3ccc(Br)cc3)n2)cc1,PTGS2,enzyme activity,,10 µM,inhibition,77.2%
O=C(NN=c1c(=O)c2ccccc2c1=O)c1ccncc1,USP5,"enzyme activity, inhibitor",,17 µM,inhibition,85%
C/C=C(/C)C(=O)O[C@@H]1C=C(C)CC[C@]2(O)[C@@H](C(C)C)CC(=O)[C@]12C,PTGS2,"enzyme activity, inhibitor",,7.81 µg/mL,inhibition,0%
CN1C=C/C(=C\c2cc[n+](C)c3ccccc23)c2ccccc21,Coelenterazine h 2-monooxygenase,"luciferase activity, inhibitor, luminescence counter-screen",,"concentration not given, test 2",inhibition,120% and 133%
NC1=CC(=O)c2ccccc2C1=O,USP5,"enzyme activity, inhibitor",,17 µM,inhibition,64%
CN(C)C/C=C/C(=O)Nc1ccc2nc(NCCCCCN(C)C)nc(NCCCCCCN(C)C)c2c1,"PRMT6 (Homo sapiens, UniProt Q96LA8)","enzyme activity, inhibitor, radiometric",,50 µM,inhibition,89%
CCCCCCCCN(CCC(=O)Nc1ccccc1)C(=O)c1ccc(C#N)cc1,Protein-S-isoprenylcysteine O-methyltransferase,enzyme activity,Sf9 membranes,"50 µM, added: [3H]S-adenosylmethionine, biotin-farnesyl-L-cysteine",inhibition,66%
N#Cc1ccc(-c2cnc(C(=O)CCCCCCc3ccccc3)o2)nc1,recombinant FAAH (rat),enzyme activity,,"80 nM, 3 h, 22 °C, before dialysis",inhibition,~80%
CO[C@@H]1OC[C@@H](O)[C@H](O)[C@H]1O,PTGS2,"enzyme activity, inhibitor",,0.49 µg/mL,inhibition,16.4%
COc1cc(NC(=O)c2ccc([N+](=O)[O-])cc2)ccc1NC(=O)c1ccc([N+](=O)[O-])cc1,"Apelin receptor (APLNR, Homo sapiens, UniProt P35414)","β-arrestin recruitment, antagonist, PRESTO-Tango",,concentration not given,inhibition,79.1 ± 5.1%
Cl.Oc1ccc(Nc2nc(NCC3CCCO3)c3ccccc3n2)cc1 (stereo not shown),Coelenterazine h 2-monooxygenase,"luciferase activity, inhibitor, luminescence counter-screen",,"concentration not given, test 2",inhibition,105% and 112%
CN(Cc1ccc(/C=C/C(=O)NO)cc1)CC12CC3CC(CC(C3)C1)C2,human Y2 receptor,agonist radioligand binding,,0.05 µM,inhibition,-13%
CS(=O)(=O)c1ccc(-n2cc(C=NN=c3[nH]c(-c4ccc([N+](=O)[O-])cc4)cs3)c(-c3ccc([N+](=O)[O-])cc3)n2)cc1,PTGS2,enzyme activity,,10 µM,inhibition,75.6%
CCCCCCCCN(CCC(=O)Nc1ccccc1)C(=O)c1coc2ccccc12,Protein-S-isoprenylcysteine O-methyltransferase,enzyme activity,Sf9 membranes,"50 µM, added: [3H]S-adenosylmethionine, biotin-farnesyl-L-cysteine",inhibition,47%
CC=C(C)C(=O)OC1CC2C(C=C(C)C3C(OC(C)=O)CC(=O)C13C)OC(=O)C2C (stereo not shown),PTGS2,"enzyme activity, inhibitor",,0.49 µg/mL,inhibition,0%
CC1CCC(C(C)C)C(OC(=O)Cn2c(-c3ccc(Br)cc3)[n+](C)c3ccccc32)C1.[Cl-] (stereo not shown),Coelenterazine h 2-monooxygenase,"luciferase activity, inhibitor, luminescence counter-screen",,"concentration not given, test 2",inhibition,103% and 128%
C=C1CC[C@H](OCCCNC(=O)CCOCCOCCOCCOCCOCCOCCOCCOCCOCCOCCOCCOCCOCCOCCOCCOCCOCCOCCOCCOCCOCCOCCOCCOCCOCCOCCOCCOCCOCCOCCOCCOCCOCCOCCOCCOCCNC(=O)CCN2C(=O)CC(SC[C@H](NC(=O)[C@H](Cc3ccccc3)NC(=O)[C@H](CC(N)=O)NC(=O)[C@H](Cc3c[nH]cn3)NC(=O)[C@@H](NC(=O)[C@H](CC(=O)O)NC(=O)[C@H](CCC(N)=O)NC(=O)[C@H](CC(C)C)NC(=O)[C@H](CCCCN)NC(=O)[C@H](CCCCN)NC(=O)[C@H](CCCNC(=N)N)NC(=O)[C@H](CC(C)C)NC(=O)[C@H](Cc3c[nH]c4ccccc34)NC(=O)[C@H](CCC(=O)O)NC(=O)[C@@H](NC(=O)[C@H](CCCNC(=N)N)NC(=O)[C@H](CCC(=O)O)NC(=O)[C@H](CCSC)NC(=O)[C@H](CO)NC(=O)[C@H](CC(N)=O)NC(=O)[C@H](CC(C)C)NC(=O)[C@H](Cc3c[nH]cn3)NC(=O)[C@H](CCCCN)NC(=O)CNC(=O)[C@H](CC(C)C)NC(=O)[C@H](CC(N)=O)NC(=O)[C@H](Cc3c[nH]cn3)NC(=O)[C@H](CCSC)NC(=O)[C@H](CC(C)C)NC(=O)[C@H](CCC(N)=O)NC(=O)[C@@H](NC(=O)[C@H](CCC(=O)O)NC(=O)[C@H](CO)NC(=O)[C@@H](NC(=O)[C@@H](N)CO)C(C)C)[C@@H](C)CC)C(C)C)C(C)C)C(=O)O)C2=O)C/C1=C/C=C1\CCC[C@]2(C)[C@@H]([C@H](C)CCCC(C)(C)O)CC[C@@H]12 (stereo partly shown),,,"rat, plasma","subcutaneous, 30 µg/kg, single dose",MRT,15.9 h
CS(=O)(=O)c1ccc(-n2cc(C=NN=c3[nH]c(-c4ccc([N+](=O)[O-])cc4)cs3)c(-c3ccc(Br)cc3)n2)cc1,PTGS2,enzyme activity,,0.1 µM,inhibition,26.5%
O=C1NC(=Cc2ccc(O)cc2)C(=O)c2ccccc21,USP5,"enzyme activity, inhibitor",,17 µM,inhibition,95%
CCn1cc(C(=O)O)c(=O)c2c(N)c(F)c(NC3CCCCC3)cc21,"PRKACG (Homo sapiens, UniProt P22612)",kinase activity,,"0.1 µM, added: ATP at Km",inhibition,7.6%
C/C=C/C(=O)Nc1ccc2nc(NCCCCCN(C)C)nc(NCCCCCCN(C)C)c2c1,"DNA (cytosine-5)-methyltransferase 3A, with DNMT3L (DNMT3A, Homo sapiens, UniProt Q9Y6K1)",enzyme activity,,50 µM,inhibition,6%
Cc1ccc2c(c1)sc(-c1ccc(N(C)C)cc1)[n+]2C.[I-],Coelenterazine h 2-monooxygenase,"luciferase activity, inhibitor, luminescence counter-screen",,"concentration not given, test 1",inhibition,74.5% and 67.2%
CSC1=NSC2=NC(=O)C(=Cc3ccc(O)c(O)c3)C(=N)N12,USP5,"enzyme activity, inhibitor",,17 µM,inhibition,6%
NNC(c1nnnn1Cc1ccccc1)C1CCCCC1 (stereo not shown),"Endothiapepsin (EAPA, Cryphonectria parasitica, UniProt P11838)","enzyme activity, inhibitor",,200 µM,inhibition,14.1%
CC(C)Cc1ccc(-c2nn(-c3ccc(S(C)(=O)=O)cc3)cc2C=NN=c2[nH]c(-c3ccc(Br)cc3)cs2)cc1,PTGS2,enzyme activity,,0.1 µM,inhibition,38.4%
CN(C)C=CC=C1CCc2ccccc2C1=O,USP5,"enzyme activity, inhibitor",,17 µM,inhibition,84%
CC(=O)c1cnc(N)nc1N1CC[C@H]1c1nn2ccc(Cl)c2c(=O)n1-c1ccccc1,"PI3-kinase catalytic subunit delta (Rattus norvegicus, UniProt A0A8I5Y949)","kinase binding, KiNativ",rat white blood cells,"1 µM, 1 h, intact cells",inhibition,95.3%
O=C(Nc1ccc(N2CCOCC2)c2nonc12)c1cc(-c2cccnc2)nc2ccc(Cl)cc12,USP5,"enzyme activity, inhibitor",,17 µM,inhibition,93%
C[Si](C)(C)C[C@H](CN)CC(=O)O,"TACR1 (Homo sapiens, UniProt P25103)","ligand displacement, radioligand",,250 µM,inhibition,6%
O=C1c2sc(-c3ccc(N4CCC(CO)CC4)nc3F)nc2CCN1c1cccnc1,"L-type Ca2+ channel, dihydropyridine site","radioligand binding, BioPrint binding panel",,"1 µM, added: antagonist radioligand",inhibition,12%
CCCCCCCCN(CCC(=O)Nc1ccccc1)C(=O)c1cccc(C#N)c1,Protein-S-isoprenylcysteine O-methyltransferase,enzyme activity,Sf9 membranes,"50 µM, added: [3H]S-adenosylmethionine, biotin-farnesyl-L-cysteine",inhibition,53%
C[Si]1(C[C@H](CN)CC(=O)O)CCCC1,"P2Y receptor, rat","binding, radioligand binding",,"70 µM, added: labelled ATP analogue",inhibition,-5%
COC(=O)c1sc2nc[nH]c(=O)c2c1CC(=O)O,USP5,"enzyme activity, inhibitor",,17 µM,inhibition,44%
O=C(CC(F)(F)F)Nc1ccc(C2CCCCC2)cc1,,liver microsome stability,cynomolgus liver microsomes,1 µM,hepatic clearance,41 mL/min/kg
CC1=C(C)C(=O)C(NCC2CCCO2)=CC1=O (stereo not shown),USP5,"enzyme activity, inhibitor",,17 µM,inhibition,86%
O=C1c2sc(-c3ccc(N4CCC(F)C4)nc3F)nc2CCN1c1cccnc1 (stereo not shown),"CCKBR (Homo sapiens, UniProt P32239)","ligand displacement, radioligand",,1 µM,inhibition,-2%
